# Measurements collected from several papers.
# Lines come from different studies, so protocols differ. Numbers after ± are the reported error.
# Organism: Escherichia coli
SMILES,test,test system,setting,MIC
CC(C)C[C@H](NC(=O)[C@H](CCCNC(=N)N)NC(=O)[C@@H]1CCCN1C(=O)[C@H](Cc1c[nH]cn1)NC(=O)[C@@H]1CCCN1C(=O)[C@@H]1CCCN1C(=O)[C@H](CCCNC(=N)N)NC(=O)[C@@H]1CCCN1C(=O)[C@H](CCC(N)=O)NC(=O)[C@@H]1CCCN1C(=O)[C@H](CCCNC(=N)N)NC(=O)[C@H](Cc1ccc(O)cc1)NC(=O)[C@@H](NC(=O)[C@@H]1CCCN1C(=O)[C@H](CCCCN)NC(=O)[C@H](CC(N)=O)NC(=O)[C@H](CC(N)=O)NC(=O)CN)C(C)C)C(=O)O,broth microdilution,"BW25113 parental, Mueller-Hinton broth","18 h, 37 °C",0.012 ± 0.003 µM
CC1(C)S[C@@H]2[C@H](NC(=O)[C@H](N)c3ccccc3)C(=O)N2[C@H]1C(=O)O,,OXA-48 expressing,,512 µg/mL
CC[C@H](C)[C@H](NC(=O)[C@H](CCCNC(=N)N)NC(=O)[C@@H](N)CCCNC(=N)N)C(=O)N[C@@H](CCCCN)C(=O)N[C@@H](CCCCN)C(=O)N[C@@H](CCCNC(=N)N)C(=O)N1CCC[C@H]1C(=O)N1CCC[C@H]1C(=O)N[C@@H](CCCNC(=N)N)C(=O)N[C@@H](CC(C)C)C(=O)N1CCC[C@H]1C(=O)N[C@@H](CCCNC(=N)N)C(=O)N1CCC[C@H]1C(=O)N[C@@H](CCCNC(=N)N)C(=O)N1CCC[C@H]1C(=O)N[C@@H](CCCCN)C(=O)O,broth microdilution,"BW25113 parental, Mueller-Hinton broth","18 h, 37 °C",0.078 ± 0.032 µM
CC(C)C[C@H](NC(=O)CN)C(=O)N[C@@H](C)C(=O)N[C@@H](CC(=O)O)C(=O)N[C@@H](Cc1ccccc1)C(=O)N[C@@H](CC(C)C)C(=O)N[C@@H](CC(N)=O)C(=O)N[C@@H](CCCCN)C(=O)N[C@@H](C)C(=O)N[C@H](C(=O)NCC(=O)N[C@@H](CCCCN)C(=O)N[C@H](C(=O)N[C@H](C(=O)N[C@@H](CC(=O)O)C(=O)N[C@@H](Cc1ccccc1)C(=O)N[C@H](C(=O)N[C@@H](CCCCN)C(=O)N[C@@H](CO)C(N)=O)C(C)C)C(C)C)C(C)C)C(C)C,broth microdilution,K12,37 °C,> 100 µM
C[C@H](N)C(=O)N[C@@H](CS)C(=O)N1CCC[C@H]1C(=O)N[C@@H](Cc1c[nH]cn1)C(=O)N[C@@H](CCCNC(=N)N)C(=O)N[C@@H](CS)C(=O)O,broth microdilution,MTCC 443,37 °C,45 µg/mL
CC[C@H](C)[C@H](NC(=O)[C@H](CCCNC(=N)N)NC(=O)[C@@H](N)CCCNC(=N)N)C(=O)N[C@@H](CCCNC(=N)N)C(=O)N[C@@H](Cc1ccccc1)C(=O)N[C@@H](CCCNC(=N)N)C(=O)N1CCC[C@H]1C(=O)N1CCC[C@H]1C(=O)N[C@@H](Cc1ccc(O)cc1)C(=O)N[C@@H](CC(C)C)C(=O)N1CCC[C@H]1C(=O)N[C@@H](CCCNC(=N)N)C(=O)N1CCC[C@H]1C(=O)NCC(=O)N[C@@H](CCCNC(=N)N)C(=O)N[C@@H](CCCNC(=N)N)C(N)=O,broth microdilution,"BW25113 wild type, Mueller-Hinton broth","overnight, 37 °C",4 µM
CC[C@H](C)[C@H](NC(=O)CN)C(=O)N[C@@H](CCCCN)C(=O)N[C@H](C(=O)N[C@@H](CCCNC(=N)N)C(=O)N[C@@H](CCCCN)C(=O)N[C@@H](CC(C)C)C(=O)N[C@@H](Cc1ccccc1)C(=O)N[C@@H](CCCCN)C(=O)N[C@@H](CCCCN)C(=O)N[C@@H](CC(C)C)C(=O)N[C@@H](CC(C)C)C(=O)N[C@@H](CCCNC(=N)N)C(N)=O)[C@@H](C)CC,,ATCC 25922,"1 h, 37 °C, non-dividing cells in PBS",12.5 to 25 µg/mL
CC[C@H](C)[C@H](NC(=O)[C@H](CCCCN)NC(=O)[C@H](CCCNC(=N)N)NC(=O)[C@@H](NC(=O)[C@H](CC(C)C)NC(=O)[C@H](CCCCN)NC(=O)[C@H](CC(C)C)NC(=O)[C@@H](NC(=O)[C@H](CCCCN)NC(=O)CNC(=O)[C@H](Cc1ccccc1)NC(=O)[C@@H](N)Cc1ccccc1)C(C)C)[C@@H](C)CC)C(=O)N[C@@H](Cc1ccccc1)C(N)=O,broth microdilution,K12,37 °C,> 100 µM
CC(C)C[C@H](NC(=O)[C@H](CCCNC(=N)N)NC(=O)[C@H](C)NC(=O)[C@@H](NC(=O)[C@H](CC(C)C)NC(=O)[C@H](Cc1c[nH]cn1)NC(=O)[C@H](CC(C)C)NC(=O)[C@@H](NC(=O)[C@@H](N)CO)[C@@H](C)O)C(C)C)C(=O)N[C@@H](CCCNC(=N)N)C(=O)NCC(=O)NCC(=O)O,,DH5α,"37 °C, ≥90% viability decrease",> 100 µM
CC[C@H](C)[C@H](NC(=O)[C@H](Cc1ccc(O)cc1)NC(=O)[C@@H](NC(=O)[C@@H]1CCCN1C(=O)[C@H](CCCNC(=N)N)NC(=O)[C@H](CC(N)=O)NC(=O)[C@H](CC(N)=O)NC(=O)CN)C(C)C)C(=O)N1CCC[C@H]1C(=O)N[C@@H](CCC(N)=O)C(=O)N1CCC[C@H]1C(=O)N[C@@H](CCCNC(=N)N)C(=O)N1CCC[C@H]1C(=O)N1CCC[C@H]1C(=O)N[C@@H](Cc1c[nH]cn1)C(=O)N1CCC[C@H]1C(=O)N[C@@H](CCCNC(=N)N)C(=O)N[C@@H](CC(C)C)C(=O)O,broth microdilution,"BW25113 parental, Mueller-Hinton broth","18 h, 37 °C",0.024 ± 0.006 µM
C[C@@H](O)[C@H]1C(=O)N2C(C(=O)O)=C(SCCN=CN)C[C@H]12,,"clinical isolates, blaNDM-1",,8 µg/mL
CC[C@H](C)[C@H](NC(=O)CNC(=O)[C@H](CCCNC(=N)N)NC(=O)[C@H](Cc1ccccc1)NC(=O)[C@@H](NC(=O)[C@H](Cc1c[nH]cn1)NC(=O)[C@H](Cc1c[nH]cn1)NC(=O)[C@H](Cc1ccccc1)NC(=O)[C@@H](N)Cc1ccccc1)[C@@H](C)CC)C(=O)N[C@H](C(=O)N[C@@H](Cc1c[nH]cn1)C(=O)N[C@H](C(=O)NCC(=O)N[C@@H](CCCCN)C(=O)N[C@H](C(=O)N[C@H](C(=O)N[C@@H](Cc1c[nH]cn1)C(=O)N[C@@H](CCCNC(=N)N)C(=O)N[C@@H](CC(C)C)C(=O)N[C@H](C(=O)N[C@H](C(=O)NCC(N)=O)[C@@H](C)O)C(C)C)[C@@H](C)CC)[C@@H](C)O)C(C)C)C(C)C,broth microdilution,ATCC 25922,"18 h, 37 °C",3.1 µg/mL
CC[C@H](C)[C@H](NC(=O)[C@H](CC(=O)O)NC(=O)[C@H](Cc1ccccc1)NC(=O)[C@H](CC(C)C)NC(=O)CN)C(=O)N[C@H](C(=O)N[C@@H](CCCCN)C(=O)N[C@@H](CCCCN)C(=O)N[C@H](C(=O)N[C@H](C(=O)NCC(=O)N[C@@H](C)C(=O)N[C@@H](CC(C)C)C(=O)N[C@@H](CCCCN)C(N)=O)C(C)C)C(C)C)C(C)C,,"ATCC 25922, CAMHB","18 h, 37 °C",> 22 µM
CC[C@H](C)[C@H](N)C(=O)N[C@H](C(=O)N[C@@H](CCCCN)C(=O)N[C@@H](CCCNC(=N)N)C(=O)N[C@H](C(=O)N[C@@H](CC(C)C)C(=O)N[C@H](C(=O)N[C@@H](CCC(N)=O)C(=O)N[C@@H](CC(C)C)C(=O)N[C@@H](CCCCN)C(=O)N[C@@H](CCCCN)C(=O)N[C@@H](CC(C)C)C(=O)N[C@@H](CC(C)C)C(N)=O)[C@@H](C)CC)[C@@H](C)CC)[C@@H](C)CC,broth microdilution,"ATCC 25922, LB medium","16 to 20 h, 37 °C",25 to 50 µg/mL
CC[C@H](C)[C@H](NC(=O)[C@H](CCCNC(=N)N)NC(=O)[C@@H](N)CCCNC(=N)N)C(=O)N[C@@H](CCCCN)C(=O)N[C@@H](CCCCN)C(=O)N[C@@H](CCCNC(=N)N)C(=O)N1CCC[C@H]1C(=O)N1CCC[C@H]1C(=O)N[C@@H](CCCNC(=N)N)C(=O)N[C@@H](CC(C)C)C(=O)N1CCC[C@H]1C(=O)N[C@@H](CCCNC(=N)N)C(=O)N1CCC[C@H]1C(=O)N[C@@H](CCCNC(=N)N)C(=O)N1CCC[C@H]1C(=O)N[C@@H](CCCNC(=N)N)C(=O)O,,JW0368 ΔsbmA,"18 h, 37 °C, 12.5% Mueller-Hinton broth",0.06 ± 0.014 µM
CC(C)C[C@H](NC(=O)[C@H](Cc1ccccc1)NC(=O)[C@H](CCCCN)NC(=O)[C@@H](N)CCCCN)C(=O)NCC(=O)N[C@@H](CCCCN)C(=O)N[C@@H](Cc1c[nH]c2ccccc12)C(=O)N[C@@H](CCCCN)C(=O)N[C@@H](CC(C)C)C(=O)N[C@@H](CCCNC(=N)N)C(=O)N[C@@H](Cc1ccccc1)C(=O)NCC(=O)N[C@@H](Cc1c[nH]c2ccccc12)C(N)=O,,ATCC 25922,"1 h, 37 °C, dividing cells in LB",12.5 to 25 µg/mL
CSCC[C@H](NC(=O)[C@H](CO)NC(=O)[C@H](CCCCN)NC(=O)[C@H](Cc1c[nH]c2ccccc12)NC(=O)[C@@H](N)CO)C(=O)N[C@@H](C)C(=O)N[C@@H](CCCCN)C(=O)N[C@@H](CCCCN)C(=O)N[C@@H](CC(C)C)C(=O)N[C@@H](CCCCN)C(=O)N[C@@H](CCC(=O)O)C(=O)N[C@@H](Cc1ccc(O)cc1)C(=O)N[C@@H](CCSC)C(=O)N[C@@H](CCC(=O)O)C(=O)N[C@@H](CCCCN)C(=O)N[C@@H](CC(C)C)C(=O)N[C@@H](CCCCN)C(=O)N[C@@H](CCC(N)=O)C(=O)N[C@@H](CCCNC(=N)N)C(=O)N[C@@H](C)C(=O)O,broth microdilution,K12,37 °C,> 100 µM

# Excerpt of the above:
SMILES,test,test system,setting,MIC
CC[C@H](C)[C@H](NC(=O)[C@H](CCCNC(=N)N)NC(=O)[C@@H](N)CCCNC(=N)N)C(=O)N[C@@H](CCCCN)C(=O)N[C@@H](CCCCN)C(=O)N[C@@H](CCCNC(=N)N)C(=O)N1CCC[C@H]1C(=O)N1CCC[C@H]1C(=O)N[C@@H](CCCNC(=N)N)C(=O)N[C@@H](CC(C)C)C(=O)N1CCC[C@H]1C(=O)N[C@@H](CCCNC(=N)N)C(=O)N1CCC[C@H]1C(=O)N[C@@H](CCCNC(=N)N)C(=O)N1CCC[C@H]1C(=O)N[C@@H](CCCNC(=N)N)C(=O)O,,JW0368 ΔsbmA,"18 h, 37 °C, 12.5% Mueller-Hinton broth",0.06 ± 0.014 µM
CC1(C)S[C@@H]2[C@H](NC(=O)[C@H](N)c3ccccc3)C(=O)N2[C@H]1C(=O)O,,OXA-48 expressing,,512 µg/mL
